Experimental data gathered from unrelated publications.
Compare with care: the assays were run in different laboratories. “And” joins repeats or separate records; there may be more than shown. ± gives the spread as reported.

Structure (SMILES) | cell line | assay | test system | setting | IC50
COc1ccc2c(C)cc(=O)oc2c1 | NIH3T3 | hyaluronan secretion | – | 72 h | 223 ± 140 µM
COc1ccc(C[C@H]2COC(=O)[C@@H]2Cc2ccc(OCC(=O)N3CCC(C(=O)NO)CC3)c(OC)c2)cc1OC | CCRF-CEM | cell growth or viability, CCK-8 | – | 48 h | > 5 µM
COc1cc([C@@H]2c3cc4c(cc3[C@@H](O[C@@H]3O[C@@H]5CO[C@@H](C)O[C@H]5[C@H](O)[C@H]3O)[C@H]3COC(=O)[C@H]23)OCO4)cc(OC)c1O | PANC-1 | cell growth or viability, MTT | – | 48 h | 24.3 µM
COc1cc(C(=O)c2sc3cc(C)ccc3c2N)cc(OC)c1OC | L1210 | cell growth or viability | – | – | 0.009 µM
O=c1[nH]nc(O)c2c(-c3cccc(Br)c3)c3n(c12)CCn1cccc1-3 | PANC-1 | cell growth or viability, MTT | – | 48 h | 58.2 µM
CC/C(=C(\c1ccc(O)cc1)c1ccc(OCCN(C)C)cc1)c1ccccc1 | cultured mouse DRG neurons | sodium current, whole-cell voltage clamp | – | 5 min, -10 mV trains at 0.2 Hz | 3.3 µM
CC(=O)Nc1cccc(C(=O)Nc2ccc(Nc3nccc(-c4cccnc4)n3)c(C)c2)c1 | SH-SY5Y MKK7-ACT | c-Jun phosphorylation, inhibitor, HTRF, item: phospho-c-Jun Ser63 | – | 6 h, with: doxycycline | 6.79 ± 0.256 µM
O=C1Nc2c(C(F)(F)F)cccc2C1(c1ccc(O)cc1)c1ccc(OC(F)(F)F)cc1 (stereo not drawn) | ERα-expressing cell lines | cell death | – | mean over cell lines | 0.034 µM
CC1(C)c2cc3cc(-c4ccc(O)cc4O)c(=O)oc3cc2OC1CO (stereo not drawn) | Hepa1c1c7 | cell growth | – | – | > 100 µM
O=c1[nH]nc(O)c2c(-c3ccc(Cl)cc3Cl)c3n(c12)CCn1cccc1-3 | PANC-1 | cell growth or viability, MTT | – | 48 h | 72.5 µM
O=c1cc(-c2ccc(O)cc2)oc2cc(O)cc(O)c12 | CCRF-CEM | cell growth or viability, ATP luminescence | – | 24 h | 195 µM
C=C(C)/C=C1/C=CC(=O)C(C)=C1 | LAPC4 | AR transcriptional activity, antagonist, PSA promoter luciferase | – | 24 h | 5.62 µM
C=C(Br)C(=O)Nc1cccc(/C=C/C(=O)Nc2ccc(N3CCOCC3)cc2)c1 | human PBMC | cell growth or viability, MTT | – | 72 h | 3.5 to 4 µM
COc1ccc(C[C@H](N)C(=O)N[C@H]2[C@@H](O)[C@H](n3cnc4c(N(C)C)ncnc43)O[C@@H]2CO)cc1 | NIH3T3 | resazurin | – | 250 cells per well | 4.69 ± 0.13 µM
C[C@@H]1COCCN1c1nc(-c2cnc(N)c(C(F)(F)F)c2)nc2c1C[C@@H]1COCCN21 | A2058 | In-Cell Western, item: phospho-Akt Ser473 | – | 1 h | < 0.55 µM
CS(=O)(=O)N1CCN(Cc2cc3nc(-c4cccc5[nH]ncc45)nc(N4CCOCC4)c3s2)CC1 | IGROV-1 | AKT Ser473 phosphorylation, inhibitor, electrochemiluminescent immunoassay | – | 2 h | 0.018 ± 0.001 µM
O=C1C(=Cc2ccccc2)CN(C(=O)c2cccc(C(=O)N3CC(=Cc4ccccc4)C(=O)C(=Cc4ccccc4)C3)c2)CC1=Cc1ccccc1 | L1210 | cell growth or viability | – | – | 150 µM
Cc1cc(C(=O)/C(=C/c2cc(Br)cs2)c2cc(Br)cs2)c(C(=O)N2CCCCC2)c(=O)[nH]1 | human Fibroblast | cell growth or viability, MTT | – | 72 h | > 10 µM
CC(C)Oc1ccc(C(=O)Cn2ccnc2)cc1-n1c(CN2CCN(C(=O)COc3ccc(Cl)cc3)CC2)nc2ccccc2c1=O | KARPAS-422 | cell viability, CellTiter-Glo | – | 24 h | 0.1 to 10 µM
Cn1nnc2c(C(N)=O)ncn2c1=O | GM12878 | cell proliferation, MTS | – | 72 h, with: HNL 10 µM | 126 µM
C=CCNC1=C2C[C@@H](C)C[C@H](OC)[C@H](O)[C@@H](C)/C=C(\C)[C@H](OC(N)=O)[C@@H](OC)/C=C\C=C(/C)C(=O)NC(=CC1=O)C2=O | LAPC4 | AR transcriptional activity, antagonist, PSA promoter luciferase | – | 24 h | 0.001 to 0.003 µM and 0.0017 µM

Structure (SMILES) | cell line | assay | test system | setting | IC50
COc1ccccc1-c1nccc(COc2ccccc2C[C@@H](Oc2ncnc3oc(-c4ccc(F)cc4)c(-c4ccc(OCCN5CCN(C)CC5)c(Cl)c4C)c23)C(=O)O)n1 | NCI-H929 | cell viability, MTT | – | 48 h, 10% CFS | 0.024 µM
CC(=O)c1cc(C(=O)N[C@@H](C)Cn2ccc(-c3ccc(C#N)c(Cl)c3)n2)[nH]n1 | LAPC4 | cell growth or viability, ATP luminescence | – | – | 0.66 µM
Brc1ccc2[nH]c(-c3ccccc3)cc2c1 | HEK293 NF-κB luciferase reporter | reporter gene, item: NF-κB | – | 6 h, with: TNFα | 2.4 ± 0.3 µM
COc1cc2ncnc(Nc3ccc(Cl)cc3F)c2cc1OC | H3255 (EGFR L858R) | cell viability, Alamar Blue | – | 120 h | 0.09 ± 0.007 µM
COc1ccc(Nc2ncnc(-c3cccnc3Nc3cc(NC(=O)c4ccc(CN5CCN(C)CC5)cc4)ccc3C)n2)cc1 | Ba/F3 expressing native BCR-ABL | cell proliferation, inhibitor, trypan blue exclusion | – | 48 h, without IL-3 | < 0.01 µM
COC(=O)c1c(-c2ccc(F)cc2)c2n(c1C(=O)OC)CCn1cccc1-2 | PANC-1 | cell growth or viability, MTT | – | 48 h | 75.3 µM
Cc1cc(=O)oc2cc(O)ccc12 | NIH3T3 | hyaluronan secretion | – | 72 h | 8.68 ± 1.6 µM
CC(=O)O[C@H]1C(=O)[C@@]2(C)[C@H]([C@H](OC(=O)c3ccccc3)[C@]3(O)C[C@H](OC(=O)[C@H](O)[C@@H](NC(=O)c4ccccc4)c4ccccc4)C(C)=C1C3(C)C)[C@]1(OC(C)=O)CO[C@@H]1C[C@@H]2O | HCT-15/ADM2-2 | cell growth, XTT | – | 72 h | 1.57 µg/mL
CCn1[c](=[Au-2]([Cl])([Cl])[Cl])n(CC)c2ccccc21 | RC-124 kidney epithelial | cell proliferation, crystal violet staining | – | 96 h | 6.3 ± 2 µM
CCCCCCCC/C=C\CCCCCCCC[N+](C)(C)CCCS(=O)(=O)[O-] | SK-OV-3 eGFP-transfected | cell viability, MTT | – | 24 h | 62 µM
COc1ccc2cc3[n+](cc2c1OCCc1cn(Cc2ccc(Br)cc2)nn1)CCc1cc2c(cc1-3)OCO2 | HUVEC | cell growth or viability, MTT | – | – | 11.2 µM
C=C(Br)C(=O)Nc1c(C(=O)c2cc(OC)c(OC)c(OC)c2)oc2ccc(OC)cc12 | L1210 | cell growth or viability | – | 24 h | > 100 µM
COc1ccc(C[C]2([Ti+2][C]3(Cc4ccc(OC)cc4)C=CC=C3)C=CC=C2)cc1.[Cl-].[Cl-] | IMR-90 | cell growth or viability, resazurin | – | 72 h | > 100 µM
COc1cc(C(=O)c2sc3cc(C)ccc3c2NC(=O)CCl)cc(OC)c1OC | L1210 | cell growth or viability | – | 24 h | 0.059 µM
O=C(/C=C/c1cccc(O)c1)c1ccc(F)cc1 | WRL68 | cell growth or viability, MTT | – | 72 h | 38.9 µM
Cn1cc(Nc2nccc(-c3ccc4c(c3)CN(C3COC3)CC[C@H]4NC(=O)c3cn(C(C)(C)C)nn3)n2)cn1 | B cells | CD69 expression | human whole blood | healthy donors, with: anti-IgD | 0.087 µM
Cc1cc(O)c2c(c1)C(=O)c1cc(O)cc(O)c1C2=O | MOLT-3 | cell growth or viability, ATP luminescence | – | 24 h | 8 µM
O=C(N/N=C/c1cccnc1)c1c(O)ccc2ccccc12 | PANC-1 | cell growth or viability | – | 72 h | > 10 µM
CN(C)c1ccc(-c2cc3ccccc3[nH]2)cc1 | HEK293 NF-κB luciferase reporter | reporter gene, item: NF-κB | – | 6 h, with: TNFα | 1.5 ± 0.7 µM
COc1cc(-c2c3n(c4c(=O)[nH]nc(O)c24)CCn2cccc2-3)ccc1O | PANC-1 | cell growth or viability, MTT | – | 48 h | 15 µM
COc1cc(C(=O)c2sc3ccccc3c2NC(C)=O)cc(OC)c1OC | L1210 | cell growth or viability | – | 24 h | 1.89 µM
